Experimental data pooled from the literature.
Numbered parts are unrelated; each lists some results of a single study.

Series 1
Target: Prothrombin, mature alpha-thrombin (F2, Homo sapiens, UniProt P00734)
Method: aptamer microarray, sandwich
Molecule type: DNA with 2'F-ANA
Matrix: in vitro
Tested at: 200 nM
Notes: whole 15-mer aptamer, many near background
Together with: Cy3 exosite-II aptamer, 400 nM
Direction: higher = stronger binding
Measurement: mean fluorescence intensity
Sequence: GGTTGGTGTGGTTGG
Modification = 2'F-ANA at 3 7 10 13 14; result = 501 a.u.
Modification = 2'F-ANA at 1 2 4 5 7 8 9 11 12 13 14 15; result = 48.4 a.u.
Modification = 2'F-ANA at 1 2 4 7 8 10 13 14; result = 42.3 a.u.
Modification = 2'F-ANA at 1 3 4 6 7 8 10 13 14 15; result = 54.2 a.u.
Modification = 2'F-ANA at 5 6 7 8 11 12 13; result = 114 a.u.
Modification = 2'F-ANA at 1 2 3 4 5 6 7 10 11 13 15; result = 57 a.u.
Modification = 2'F-ANA at 1 4 5 6 9 10 11 13; result = 46.6 a.u.
Modification = 2'F-ANA at 6 10 13; result = 137 a.u.
Modification = 2'F-ANA at 4 5 6 8 11 12 13; result = 78.6 a.u.
Modification = 2'F-ANA at 1 5 7 8 9 10 11 12 13 14 15; result = 45.8 a.u.
Modification = 2'F-ANA at 3 4 5 6 15; result = 113 a.u.
Modification = 2'F-ANA at 2 5 6 8 9 10 11 12 15; result = 48.5 a.u.
Modification = 2'F-ANA at 3 4 6 7 9 12 14; result = 290 a.u.
Modification = 2'F-ANA at 1 2 3 11 15; result = 203 a.u.
Modification = 2'F-ANA at 3 4 5 6 7 8 9 10 11 14 15; result = 52.7 a.u.
Modification = 2'F-ANA at 2 3 4 5 6 7 10 11 14; result = 48.1 a.u.
Modification = 2'F-ANA at 2 4 6 8 11 12 14 15; result = 181 a.u.
Modification = 2'F-ANA at 1 6 9 10 12 14; result = 46.4 a.u.
Modification = 2'F-ANA at 2 4 5 7 8 11 12 13 14 15; result = 66.8 a.u.
Modification = 2'F-ANA at 2 4 5 7 8 10 11 12 13 15; result = 47.3 a.u.
Modification = 2'F-ANA at 1 2 5 6 9 11 12 14 15; result = 49.6 a.u.
Modification = 2'F-ANA at 3 7 11 12 13; result = 1240 a.u.

Series 2
Target: RNA binding protein fox-1 homolog 2, RRM domain, GST-SBP tag (RBFOX2, Homo sapiens, UniProt O43251-10, residues 100-194)
Method: RNA Bind-n-Seq
Molecule type: RNA
Matrix: in vitro
Tested at: 365 nM
Notes: natural RNA segment, single round, ends assumed
Baseline: no-protein control
Direction: higher = stronger binding
Measurement: RBNS enrichment (R)
Constant ends, left off below: GGGAGUUCUACAGUCCGACGAUC … UGGAAUUCUCGGGUGCCAA
Construct (chain): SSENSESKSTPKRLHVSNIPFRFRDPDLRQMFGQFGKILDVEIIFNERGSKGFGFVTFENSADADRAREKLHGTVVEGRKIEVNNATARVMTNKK
Sequence = UGACUUUGCAUAUAGGGCUCCCAUGCACCCACCGUUCCUCUGUUUUGAAACUCUAAUUGCAAUAACUUCAGUCUUUCUCCAUCUUCAGCUGUAUCCACAAAAUCUCCACU; result = 1.66
Sequence = CAAAAUAGGGAAUUAACUUUUGUACAGUCUGGGCAUUUACAUGUAUUUUUAAUGUAUUACAAUUUGGUAAUUAUGUGCACAUGAAAUUAAUAAAAGUUACUUCCUGUUAU; result = 0.594
Sequence = AUGUGGGGCUGGUGGAGAUGCCUCCACCCCAGGAGCCUCUGCAUAUGUGGUUCGUGGCCUUCUUCUCACCCAUUGGGAAAACCAAACAGCCUCACACUCUGUCCCCAUCG; result = 0.315
Sequence = CUGCCUGGGUUUUAUUUUUCUAAUCAGCAAGGUGCUUCACUGCCUUCUUGAGACGCCUCUCAAAGCUCUUAAAUGGCUCCUGUGCUAUGUGUGGUGUUGGCAGUCUAAUU; result = 0.563
Sequence = UGGAAUUUCAGGAACUAUUGGAGCACGGCACAAUUGAUGCACAGGUAUUUCCUCCUGGCCCUUUUGGGUAUCAGCUUGCAGCUGGGAUACAGGCAUCUUAGAUAUUGCAG; result = 4.01
Sequence = AACAUAAAAGAAAAGAUCUGAUUCCCGCAGGUUCUCUUCUGACCUACACACACACACACUAAAAUAACAUUUAAAAAUAUGUGCCAAAUUAUAUUUGUUCGGGUGCCACC; result = 0.825
Sequence = GCUUUUUCUUCUCUCCCUCUAUGAAUUCUUAUAAUGUCCCUUUUUCUGUAAGUUUUUGAGAGGCAAUUGGCAAUUUAGGAGGCAGCAGGGUCUGUUUUGGUCAAAUCUUG; result = 0.466
Sequence = UGAGGAAGGCACAGGCAAGCAAGGAGCCAUGAACCACAGGGCCCCAGCCAGCACAGGAUUUGUCCUCAUUCCGUGGGUGAUGGAUGAAUCUAUUGGAGUCCUGAAUAAAU; result = 0.442

Series 3
Target: Histone acetyltransferase KAT6A, both winged helices, GST fusion (KAT6A, Homo sapiens, UniProt Q92794, residues 1-181)
Method: protein binding microarray
Molecule type: double-stranded DNA, one strand shown
Matrix: in vitro
Tested at: not given
Notes: 8-mer, flanks averaged, mean of 2 arrays, mostly near background
Baseline: not given
Direction: higher = stronger binding
Measurement: E-score
Residues (chain): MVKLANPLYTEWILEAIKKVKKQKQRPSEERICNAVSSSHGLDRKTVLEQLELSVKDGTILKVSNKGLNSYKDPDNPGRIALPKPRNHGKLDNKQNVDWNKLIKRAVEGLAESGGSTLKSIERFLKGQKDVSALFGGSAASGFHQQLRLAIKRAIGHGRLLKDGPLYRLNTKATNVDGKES
Sequence = AACACCCT; result = -0.0916
Sequence = AAACTTTA; result = -0.0234
Sequence = AAATAGTA; result = -0.137
Sequence = ATGCTAAC; result = -0.0598
Sequence = CATGAGCA; result = -0.105
Sequence = GTACACCA; result = -0.164
Sequence = ATTAGAGA; result = -0.179
Sequence = ATACTTGG; result = -0.292
Sequence = GGACCCCA; result = -0.212
Sequence = ACGGTTTG; result = 0.187
Sequence = AGCCGTGG; result = 0.185
Sequence = CCGCGCTA; result = 0.32
Sequence = CCAATGCA; result = -0.171
Sequence = ACCTAATG; result = -0.202
Sequence = ACAGGCAG; result = -0.192
Sequence = TAAAAGAA; result = 0.0282
Sequence = ATCTCGGC; result = 0.135
Sequence = AGGCACAC; result = -0.213
Sequence = GTACACGA; result = 0.0805
Sequence = GGTGATAC; result = -0.0674
Sequence = CTCCCGGA; result = 0.0283

Series 4
Target: Interferon regulatory factor 7, full length, phosphomimetic (IRF7, Homo sapiens, UniProt Q92985, residues 1-503, S101K/S471D/S472D/S475D/S476D/S477D/S483D/S484D/S487D)
Chain of UniProt Q92985 (whole entry, unmodified, looked up): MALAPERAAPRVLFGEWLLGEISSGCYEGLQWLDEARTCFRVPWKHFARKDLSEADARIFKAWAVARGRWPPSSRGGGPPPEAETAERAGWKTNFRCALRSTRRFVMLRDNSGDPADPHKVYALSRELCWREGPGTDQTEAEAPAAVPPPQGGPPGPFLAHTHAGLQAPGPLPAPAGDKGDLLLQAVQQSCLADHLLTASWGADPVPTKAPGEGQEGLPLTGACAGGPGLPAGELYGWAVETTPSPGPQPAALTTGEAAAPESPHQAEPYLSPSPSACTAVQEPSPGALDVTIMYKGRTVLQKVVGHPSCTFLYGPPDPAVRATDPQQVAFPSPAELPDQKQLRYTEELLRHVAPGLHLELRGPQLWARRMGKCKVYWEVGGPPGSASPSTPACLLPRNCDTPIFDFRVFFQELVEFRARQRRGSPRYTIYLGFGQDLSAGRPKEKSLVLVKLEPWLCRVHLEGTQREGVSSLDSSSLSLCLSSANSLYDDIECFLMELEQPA
Method: protein-binding microarray
Molecule type: double-stranded DNA, one strand shown
Matrix: in vitro
Tested at: 250 nM
Notes: 60-bp whole probe
Together with: salmon DNA 0.4 mg/ml
Baseline: random background probes
Direction: higher = stronger binding
Measurement: log fluorescence
Constant ends, left off below: GCCTAGCAC … GTCTTGATTCGCTTGACGCTGCTG
Sequence = TGAGGACTGGGGACTGGGTTAGTGCTA; result = -0.64 z-score
Sequence = TTAGAACTGGGGTATTGATTAGTGCTA; result = -0.447 z-score
Sequence = GACGGACGGGGTTTCGGGACGTGCTAG; result = 1.56 z-score
Sequence = TTTAGATTTTTTTTCCTAATGTGCTAG; result = 1.14 z-score
Sequence = GATGATATCAGTTTCGAGACGTGCTAG; result = 3.71 z-score
Sequence = TTAGGACTGGTACTGGGTTAGTGCTAG; result = -0.143 z-score
Sequence = TTAGAACTGATTCTCGATTAGTGCTAG; result = 0.833 z-score
Sequence = CTGCCTGCTCAGACTGGGGCGTGCTAG; result = -0.416 z-score
Sequence = ATAGGACTGGGTTTCGGTTAGTGCTAG; result = 6.58 z-score
Sequence = TTAGAACTGGGGTTTTGATTAGTGCTA; result = 0.0442 z-score
Sequence = TCAGGTATTTTTCTAAAACTGTGCTAG; result = 0.162 z-score
Sequence = TGAGATTTCAGTTTCGATTAGTGCTAG; result = 8.85 z-score
Sequence = TTAGGACTGGATTATCGGTTAGTGCTA; result = 0.456 z-score
Sequence = TTAGGACTGCATTTCCTTTAGTGCTAG; result = 0.551 z-score
Sequence = TTAGGTTTCCTTCTCCGTTAGTGCTAG; result = 2.6 z-score
Sequence = TTAGGACTGGGTTTCGGCTAGTGCTAG; result = 1.36 z-score
Sequence = GACGATATCAGTATCGAAACGTGCTAG; result = 0.644 z-score
Sequence = TTAGGTTTCGGGGATCGGTTAGTGCTA; result = 2.43 z-score
Sequence = TTAGTTTTCCTTCTCCTTTAGTGCTAG; result = 3.46 z-score

Excerpt of the above (series 3):
Sequence = ATCTCGGC; result = 0.135
Sequence = ATTAGAGA; result = -0.179
Sequence = ACGGTTTG; result = 0.187
Sequence = GTACACCA; result = -0.164
Sequence = ACCTAATG; result = -0.202
Sequence = AGGCACAC; result = -0.213
Sequence = ATACTTGG; result = -0.292
Sequence = CTCCCGGA; result = 0.0283
